Assay results of several laboratories.
Compare with care: the assays were run in different laboratories.

| Structure (SMILES) | host | matrix | route | dose | notes | AUC(0-t) |
| --- | --- | --- | --- | --- | --- | --- |
| Cc1cc(NCC(=O)C(C)C)c2nc(N3CCOC[C@H]3C)cc(=O)n2c1 | C57BL/6 mouse | plasma | intraperitoneal | 10 mg/kg | single dose | 3030 ng·h/mL |
| Cn1c2cc([S+](C)[O-])sc2c2cnn(Cc3cccc(N)c3)c(=O)c21 (stereo not shown) | male BALB/c mouse | plasma | intravenous | 1 mg/kg | single dose | 958 ng·h/mL |
| CC[C@H](C)[C@@H]1NC(=O)[C@@](C)(NC(=O)[C@H](CCCNC(=N)N)NC(=O)[C@H](CC(C)C)NC(=O)[C@]2(C)CCCC=CCCC[C@](C)(NC(C)=O)C(=O)N[C@@H](CC(C)C)C(=O)N[C@@H](CCC(N)=O)C(=O)N2)CCCC=CCCC[C@@](C)(C(=O)N[C@@H](CC(C)C)C(=O)N[C@@H](Cc2ccc3ccccc3c2)C(=O)NCCC(=O)NCCC(N)=O)NC(=O)[C@H](CCCNC(=N)N)NC(=O)[C@H](CCC(N)=O)NC1=O | male BALB/c mouse | plasma | intravenous | 30 mg/kg |  | 996000 ng·h/mL |
| COc1ccc(C(=O)c2c(C(=O)NCCCN(C)C)oc3ccc(Cl)cc3c2=O)cc1OC | male C57BL/6 mouse | liver | intravenous | 1 mg/kg |  | 52100 ng·h/mL |
| C[C@@H](Nc1nc2c(cnn2C(C)(C)C)c(=O)n1Cc1cccc(F)c1)c1ccc(Cl)cc1 | C57BL/6 mouse | plasma | intravenous | 2.5 mg/kg |  | 1290 ng·h/mL |
| N#CCCC1CCN(C(=S)c2ccc(-c3cc(Cl)ccc3Cl)o2)CC1 | male BALB/c mouse | plasma | intravenous | 5 mg/kg |  | 1240 ng·h/mL |
| COc1ccccc1NC(=O)OC1C(C)C(OC)C=COC2(C)Oc3c(C)c(O)c4c(c3C2=O)C2=NC3(CCN(CC(C)C)CC3)NC2=C(NC(=O)C(C)=CC=CC(C)C(O)C(C)C(O)C1C)C4=O (stereo not shown) | female CD-1 mouse | plasma | oral | 10 mg/kg |  | 10200 ng·h/mL |
| COC(=O)C1=CNC=C(C(=O)OC)C1c1ccc(F)c(C(F)(F)F)c1 | male C57BL/6 mouse | plasma | oral | 50 mg/kg |  | 16400 ng·h/mL |
| O=C(NCCCCc1ccccc1)n1c(=O)oc2cc(-c3ccc(F)cc3)ccc21 | CD-1 mouse | plasma | intravenous | 1 mg/kg |  | 853 ng·h/mL |
| Nc1nnc(-c2ccccc2O)cc1N1CC2CCC(C1)N2c1ccnc(C#CCCN2CCCCCC2)c1 | mouse | plasma | oral | 10 mg/kg |  | 3.3 nM·h |
| Cc1cc(NCC(=O)C(C)(C)C)c2nc(N3CCOC[C@H]3C)cc(=O)n2c1 | C57BL/6 mouse | plasma | intraperitoneal | 10 mg/kg | single dose | 2320 ng·h/mL |
| O=C(O)c1ccc(/C=C2\SC(=S)N(Cc3cccc(C(F)(F)F)c3)C2=O)cc1 | C57BL/6 mouse | blood | intravenous | 5 mg/kg |  | 5720 ng·h/mL |
| CC[C@H](C)[C@H](NC(=O)[C@H](Cc1ccccc1)NC(=O)[C@H](CCC(=O)O)NC(=O)[C@H](CCCCN)NC(=O)[C@H](C)NC(=O)[C@H](C)NC(=O)[C@H](CCC(N)=O)NC(=O)CNC(=O)[C@H](CCC(=O)O)NC(=O)[C@H](CC(C)C)NC(=O)[C@H](Cc1ccc(O)cc1)NC(=O)[C@H](CO)NC(=O)[C@H](CO)NC(=O)[C@@H](NC(=O)[C@H](CC(=O)O)NC(=O)[C@H](CO)NC(=O)[C@@H](NC(=O)[C@H](Cc1ccccc1)NC(=O)[C@@H](NC(=O)CNC(=O)[C@H](CCC(=O)O)NC(=O)[C@H](C)NC(=O)[C@@H](N)Cc1c[nH]cn1)[C@@H](C)O)[C@@H](C)O)C(C)C)C(=O)N[C@@H](C)C(=O)N[C@@H](Cc1c[nH]c2ccccc12)C(=O)N[C@@H](CC(C)C)C(=O)N[C@H](C(=O)N[C@@H](CCCNC(=N)N)C(=O)NCC(=O)N[C@@H](CCCNC(=N)N)C(=O)NCC(=O)O)C(C)C | male CD-1 mouse | plasma | intravenous | 1 mg/kg | single dose | 129 ng·h/mL |
| Cc1ncsc1-c1ccc(CNC(=O)[C@@H]2C[C@@H](O)CN2C(=O)[C@@H](NC(=O)COCC(C)(COCCOCCOCCNC(=O)C[C@@H]2N=C(c3ccc(Cl)cc3)c3c(sc(C)c3C)-n3c(C)nnc32)COCCOCCOCCNC(=O)C[C@@H]2N=C(c3ccc(Cl)cc3)c3c(sc(C)c3C)-n3c(C)nnc32)C(C)(C)C)cc1 | male C57BL/6 mouse | plasma | subcutaneous | 5 mg/kg | single dose | 23200 ng·h/mL |
| CC(C)NC(=O)NC1CC=C(c2cc3c(Nc4cc5ncsc5cc4F)ncnc3s2)CC1 (racemic) | mouse | plasma | oral | 10 mg/kg |  | 11600 ng·h/mL |
| CCn1cc(-c2cc(Cn3ccnc3)cc3c2CCN([C@H](c2cc(OC)ccn2)C2CC2)C3=O)c(C(F)(F)F)n1 | male CD-1 mouse | plasma | oral | 50 mg/kg |  | 20100 ng·h/mL |
| CC(=O)c1c(C)c2cnc(Nc3ccc(N4CCNCC4)cn3)nc2n(C2CCCC2)c1=O | mouse | serum | intraperitoneal | 25 mg/kg | single dose | 381000 ng·h/mL |
| Cc1cc(NC(=O)[C@H](O)c2cc(F)cc(F)c2)ccc1-c1cnc(N)c(C(=O)NC(C)C)c1 | female nude mouse | plasma | oral | 30 mg/kg | single dose | 15600 ng·h/mL |
| CC(=O)N1CCC=C(c2cc3c(Nc4cc5ncsc5cc4F)ncnc3s2)C1 | mouse | plasma | intravenous | 10 mg/kg |  | 64800 ng·h/mL |
| O=C(OC(C(F)(F)F)C(F)(F)F)N1CCC(CNS(=O)(=O)c2ccc(Cl)cc2)CC1 | male SCID mouse | brain | oral | 10 mg/kg | single dose | 11200 ng·h/mL |
| O=C(C1CC1)N1CCC=C(c2cc3c(Nc4cc5ncsc5cc4F)ncnc3s2)C1 | mouse | plasma | intravenous | 10 mg/kg |  | 16200 ng·h/mL |
| COC1C=COC2(C)Oc3c(C)c(O)c4c(c3C2=O)C2=NC3(CCN(CC(C)C)CC3)NC2=C(NC(=O)C(C)=CC=CC(C)C(O)C(C)C(O)C(C)C(OC(=O)Nc2cscn2)C1C)C4=O (stereo not shown) | female CD-1 mouse | plasma | oral | 10 mg/kg |  | 35700 ng·h/mL |
| COc1cnc2cccc(N3CCc4c(cc(Cn5ccnc5)cc4-c4cn(C)nc4C(F)(F)F)C3=O)c2c1 | male CD-1 mouse | plasma | intravenous | 3 mg/kg |  | 2010 ng·h/mL |
| CCC(=O)N1CCC=C(c2cc3c(Nc4cc5ncsc5cc4F)ncnc3s2)C1 | mouse | plasma | oral | 10 mg/kg |  | 14900 ng·h/mL |
| COC1C=COC2(C)Oc3c(C)c(O)c4c(c3C2=O)C2=NC3(CCN(CC(C)C)CC3)NC2=C(NC(=O)C(C)=CC=CC(C)C(O)C(C)C(O)C(C)C(OC(=O)Nc2cccnn2)C1C)C4=O (stereo not shown) | female CD-1 mouse | plasma | oral | 10 mg/kg |  | 32700 ng·h/mL |
| CCC(=O)NC1CC=C(c2cc3c(Nc4cc5ncsc5cc4F)ncnc3s2)CC1 (racemic) | mouse | plasma | oral | 10 mg/kg |  | 27300 ng·h/mL |
| COc1cc(C2C3=C(COC3=O)N(CCO)c3cc4c(cc32)CCC4)cc(OC)c1OC (stereo not shown) | female C57BL/6 mouse | plasma | intraperitoneal | 50 mg/kg |  | 2500 ng·h/mL |
| COc1ccccc1/C=C/CNCC(O)COc1ccc(Nc2ccccc2)cc1 (racemic) | mouse | plasma | oral | 10 mg/kg |  | 50.4 ng·h/mL |

A few entries again:
| Structure (SMILES) | host | matrix | route | dose | notes | AUC(0-t) |
| --- | --- | --- | --- | --- | --- | --- |
| CC[C@H](C)[C@H](NC(=O)[C@H](Cc1ccccc1)NC(=O)[C@H](CCC(=O)O)NC(=O)[C@H](CCCCN)NC(=O)[C@H](C)NC(=O)[C@H](C)NC(=O)[C@H](CCC(N)=O)NC(=O)CNC(=O)[C@H](CCC(=O)O)NC(=O)[C@H](CC(C)C)NC(=O)[C@H](Cc1ccc(O)cc1)NC(=O)[C@H](CO)NC(=O)[C@H](CO)NC(=O)[C@@H](NC(=O)[C@H](CC(=O)O)NC(=O)[C@H](CO)NC(=O)[C@@H](NC(=O)[C@H](Cc1ccccc1)NC(=O)[C@@H](NC(=O)CNC(=O)[C@H](CCC(=O)O)NC(=O)[C@H](C)NC(=O)[C@@H](N)Cc1c[nH]cn1)[C@@H](C)O)[C@@H](C)O)C(C)C)C(=O)N[C@@H](C)C(=O)N[C@@H](Cc1c[nH]c2ccccc12)C(=O)N[C@@H](CC(C)C)C(=O)N[C@H](C(=O)N[C@@H](CCCNC(=N)N)C(=O)NCC(=O)N[C@@H](CCCNC(=N)N)C(=O)NCC(=O)O)C(C)C | male CD-1 mouse | plasma | intravenous | 1 mg/kg | single dose | 129 ng·h/mL |
| O=C(C1CC1)N1CCC=C(c2cc3c(Nc4cc5ncsc5cc4F)ncnc3s2)C1 | mouse | plasma | intravenous | 10 mg/kg |  | 16200 ng·h/mL |
